{"data": "Measurements from different studies", "note": "Numbers after ± are the reported error.", "sequence of UniProt Q8NER1 (whole entry, looked up)": "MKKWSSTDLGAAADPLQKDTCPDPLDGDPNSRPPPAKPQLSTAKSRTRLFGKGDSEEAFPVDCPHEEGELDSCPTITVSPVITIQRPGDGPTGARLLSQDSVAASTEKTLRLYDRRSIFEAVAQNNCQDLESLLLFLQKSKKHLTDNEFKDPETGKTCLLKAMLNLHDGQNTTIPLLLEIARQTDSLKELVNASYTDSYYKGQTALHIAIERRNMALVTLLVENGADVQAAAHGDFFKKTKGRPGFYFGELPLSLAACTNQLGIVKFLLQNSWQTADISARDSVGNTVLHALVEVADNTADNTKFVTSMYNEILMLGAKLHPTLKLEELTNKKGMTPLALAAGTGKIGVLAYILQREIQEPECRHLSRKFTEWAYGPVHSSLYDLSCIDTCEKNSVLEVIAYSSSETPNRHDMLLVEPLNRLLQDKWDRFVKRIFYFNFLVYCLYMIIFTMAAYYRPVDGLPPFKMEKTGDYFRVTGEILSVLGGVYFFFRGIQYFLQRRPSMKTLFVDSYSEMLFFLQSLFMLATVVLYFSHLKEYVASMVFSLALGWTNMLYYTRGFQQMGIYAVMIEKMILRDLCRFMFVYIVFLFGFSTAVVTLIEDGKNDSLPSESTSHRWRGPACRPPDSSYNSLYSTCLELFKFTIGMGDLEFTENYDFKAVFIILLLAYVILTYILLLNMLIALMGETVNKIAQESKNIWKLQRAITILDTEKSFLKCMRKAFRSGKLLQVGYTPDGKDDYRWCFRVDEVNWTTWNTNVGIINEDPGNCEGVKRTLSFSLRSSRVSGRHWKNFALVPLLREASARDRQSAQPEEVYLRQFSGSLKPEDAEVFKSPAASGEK", "sequence of UniProt P11388 (whole entry, looked up)": "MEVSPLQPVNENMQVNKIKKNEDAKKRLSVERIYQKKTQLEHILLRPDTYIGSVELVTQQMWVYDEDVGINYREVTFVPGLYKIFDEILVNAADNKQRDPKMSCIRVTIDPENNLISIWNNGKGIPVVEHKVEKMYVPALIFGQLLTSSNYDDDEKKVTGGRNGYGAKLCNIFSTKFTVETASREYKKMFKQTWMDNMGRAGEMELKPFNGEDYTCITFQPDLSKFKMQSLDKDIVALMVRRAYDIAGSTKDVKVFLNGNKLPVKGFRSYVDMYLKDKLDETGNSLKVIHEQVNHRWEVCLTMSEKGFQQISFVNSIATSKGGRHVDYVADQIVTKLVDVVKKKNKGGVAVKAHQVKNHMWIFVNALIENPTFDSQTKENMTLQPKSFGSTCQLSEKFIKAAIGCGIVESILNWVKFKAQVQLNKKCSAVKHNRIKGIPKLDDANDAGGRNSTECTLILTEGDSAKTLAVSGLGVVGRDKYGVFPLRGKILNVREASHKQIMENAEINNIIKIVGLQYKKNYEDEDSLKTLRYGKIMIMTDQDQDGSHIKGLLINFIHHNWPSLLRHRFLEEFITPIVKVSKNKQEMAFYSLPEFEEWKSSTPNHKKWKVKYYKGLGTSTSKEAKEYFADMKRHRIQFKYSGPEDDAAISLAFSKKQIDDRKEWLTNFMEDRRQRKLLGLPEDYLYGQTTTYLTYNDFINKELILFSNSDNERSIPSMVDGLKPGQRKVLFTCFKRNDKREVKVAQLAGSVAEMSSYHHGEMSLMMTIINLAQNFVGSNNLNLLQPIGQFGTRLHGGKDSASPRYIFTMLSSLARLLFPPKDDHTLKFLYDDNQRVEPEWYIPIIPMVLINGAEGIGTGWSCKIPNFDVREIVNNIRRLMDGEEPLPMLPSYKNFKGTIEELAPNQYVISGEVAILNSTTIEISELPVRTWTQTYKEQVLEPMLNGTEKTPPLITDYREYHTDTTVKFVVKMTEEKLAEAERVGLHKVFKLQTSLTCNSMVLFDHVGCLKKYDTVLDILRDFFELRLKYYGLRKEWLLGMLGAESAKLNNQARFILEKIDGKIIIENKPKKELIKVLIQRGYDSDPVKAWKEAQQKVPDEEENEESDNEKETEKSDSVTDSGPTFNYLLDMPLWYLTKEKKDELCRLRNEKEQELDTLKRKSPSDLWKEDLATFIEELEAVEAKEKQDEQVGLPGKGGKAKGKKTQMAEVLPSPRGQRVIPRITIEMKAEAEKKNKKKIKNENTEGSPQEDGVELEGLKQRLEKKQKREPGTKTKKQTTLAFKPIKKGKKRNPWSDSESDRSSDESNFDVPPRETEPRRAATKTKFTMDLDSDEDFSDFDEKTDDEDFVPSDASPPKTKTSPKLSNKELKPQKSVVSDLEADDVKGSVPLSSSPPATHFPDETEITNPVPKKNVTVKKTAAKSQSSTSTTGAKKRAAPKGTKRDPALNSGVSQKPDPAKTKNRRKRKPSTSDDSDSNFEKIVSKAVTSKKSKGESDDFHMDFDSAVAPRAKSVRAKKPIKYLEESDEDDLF"}
{"Molecule": "Cc1cc(C)cc(S(=O)(=O)c2c(C(=O)NCCNS(=O)(=O)c3cccnc3)[nH]c3ccc(Cl)cc23)c1", "target or system": "Gag-Pol polyprotein, reverse transcriptase (gag-pol, Human immunodeficiency virus 1, UniProt P03366)", "assay": "enzyme activity, inhibitor, ELISA", "measurement": "IC50", "result": "60 nM"}
{"Molecule": "Cc1c(S(=O)(=O)N2CCn3nccc3C2)cc(C(=O)NCc2cccnc2N2CCCC2)n1C", "target or system": "SARS-CoV-2", "assay": "viral replication", "system": "Huh7.5 cells, WA1/2020", "measurement": "EC50", "result": "3300 nM"}
{"Molecule": "Fc1ccccc1Cc1nc(-c2nc(C(F)(F)F)n[nH]2)cn2ccnc12", "system": "healthy human subjects, both sexes", "conditions": "oral, 10 mg, fed", "measurement": "subjects with respiratory TEAEs", "result": "0%"}
{"Molecule": "OC[C@H]1O[C@@H](O[C@@H]2[C@@H](O)[C@H](O[C@@H]3[C@@H](O)[C@H](O[C@@H]4[C@@H](O)[C@H](O[C@H]5[C@H](O)[C@@H](CO)OC(O)[C@@H]5O)O[C@H](CO)[C@H]4O)O[C@H](CO)[C@H]3O)O[C@H](CO)[C@H]2O)[C@H](O)[C@@H](O)[C@@H]1O (stereo partly drawn)", "target or system": "Bacteroides thetaiotaomicron", "assay": "binding, ITC", "conditions": "pH 7.0, 25 °C, middle domain", "measurement": "ΔH", "result": "-12.9 kcal/mol"}
{"Molecule": "CO/N=C(\\C(=O)N[C@@H]1C(=O)N2C(C(=O)O)=C(COC(C)=O)CS[C@H]12)c1csc(N)n1", "target or system": "Pseudomonas aeruginosa", "system": "clinical isolate RKI-No_480/15", "measurement": "MIC", "result": "> 16 µg/mL"}
{"Molecule": "Cc1c(S(=O)(=O)N2CCn3cncc3C2)cc(C(=O)NCc2c(F)ccnc2N2CCCC2)n1C", "target or system": "SARS-CoV-2", "assay": "viral replication", "system": "Huh7.5 cells, WA1/2020", "measurement": "EC50", "result": "45 nM"}
{"Molecule": "C[C@H](NC(=O)[C@@H](c1cccnc1)N(C(=O)C(Cl)Cl)c1ccc(-c2ccccc2)cc1)c1ccc(Br)cc1", "target or system": "SARS-CoV-2", "assay": "viral replication", "system": "Caco-2 hACE2", "measurement": "EC50", "result": "3240 nM"}
{"Molecule": "CC(C)C[C@H](NC(=O)OCc1ccccc1)C(=O)N[C@H](C=O)C[C@@H]1CCCNC1=O", "target or system": "SARS-CoV-2", "assay": "viral replication, RT-qPCR viral load", "system": "Calu-3", "conditions": "72 h", "measurement": "EC90", "result": "6600 ± 1800 nM"}
{"Molecule": "Cc1ccc2nc(C)c(C(=O)NCc3ccccc3)n2c1", "target or system": "Mycobacterium tuberculosis", "assay": "growth (>90% inhibition)", "system": "H37Rv, glycerol-alanine-salts medium", "measurement": "MIC", "result": "0.1 µM"}
{"Molecule": "CCCC(=O)OCSc1ccccc1C(=O)NCCn1cc(C(=O)NCc2cccc(C)n2)c(=O)c2cc3c(cc21)OC(F)(F)O3", "target or system": "HIV-1", "assay": "viral replication, reverse transcriptase", "system": "human PBMC, 92HT599 (CXCR4-tropic)", "measurement": "EC50", "result": "6520 ± 2100 nM"}
{"Molecule": "Cc1cc(C)c2sc(NC(=O)c3cc4ccccc4o3)nc2n1", "target or system": "Japanese encephalitis virus", "assay": "cytopathic effect, neutral red uptake", "system": "Vero 76, SA-14", "measurement": "EC50", "result": "> 32000 nM"}
{"Molecule": "hexadimethrine bromide", "target or system": "feline infectious peritonitis virus", "assay": "plaque", "system": "fcwf-4, type I strain KU-2", "conditions": "concentration not given", "measurement": "infection efficiency", "result": "increased"}
{"Molecule": "COc1cc([C@@H]2c3cc4c(cc3[C@@H](O[C@@H]3O[C@@H]5CO[C@@H](C)O[C@H]5[C@H](O)[C@H]3O)[C@H]3COC(=O)[C@H]23)OCO4)cc(OC)c1O", "target or system": "DNA topoisomerase 2-alpha (TOP2A, Homo sapiens, UniProt P11388)", "assay": "DNA cleavage", "conditions": "31.25 µM", "measurement": "mean linear DNA", "result": "14.9%"}
{"Molecule": "Cc1c(S(=O)(=O)N2CCc3[nH]ncc3C2)cc(C(=O)NCc2c(F)ccc3occc23)n1C", "target or system": "SARS-CoV-2", "assay": "viral replication", "system": "Huh7.5, WA1/2020", "measurement": "EC50", "result": "18 nM"}
{"Molecule": "COC(=O)Nc1c(N)nc(-c2nn(Cc3ccccc3F)c3ncc(F)cc23)nc1N", "system": "healthy white men", "conditions": "dose not given, day 14, 336 h, LS mean difference, together with: sildenafil 50 mg", "how to read": "relative to: placebo", "measurement": "seated DBP maximum decrease", "result": "-1.12 mmHg"}
{"Molecule": "C=C(C)[C@]12C[C@@H](C)[C@@]34O[C@](Cc5ccccc5)(O[C@@H]1[C@@H]3C=C(COC(=O)Cc1ccc(O)c(OC)c1)C[C@]1(O)C(=O)C(C)=C[C@@H]41)O2", "target or system": "Transient receptor potential cation channel subfamily V member 1 (TRPV1, Homo sapiens, UniProt Q8NER1)", "assay": "K+ efflux, agonist, BRET", "system": "HEK293T", "measurement": "EC50", "result": "7.76 nM"}
{"Molecule": "C[C@@H](NS(=O)(=O)c1cccc([N+](=O)[O-])c1)c1cccc2ccccc12", "target or system": "SARS-CoV-2", "assay": "viral replication", "system": "Vero E6", "measurement": "EC50", "result": "38000 nM"}
{"Molecule": "N#CCC1CCN(c2nc(Nc3ccc(N4CCC(O)CC4)cc3)c3c(=O)[nH]ncc3n2)CC1", "assay": "Olink multiplex, item: CDCP1", "system": "human, serum", "conditions": "80 mg, day 29, unit not given", "how to read": "relative to: placebo", "measurement": "serum level change", "result": -1.39}
{"Molecule": "C[C@H]1O[C@@H](O[C@H]2[C@@H](O)C[C@H](O[C@H]3[C@@H](O)C[C@H](O[C@H]4CC[C@@]5(C)[C@H](CC[C@@H]6[C@@H]5CC[C@]5(C)[C@@H](C7=CC(=O)OC7)CC[C@]65O)C4)O[C@@H]3C)O[C@@H]2C)C[C@H](O)[C@@H]1O", "target or system": "human adenovirus C5", "assay": "progeny virus production", "system": "A549", "conditions": "72 h", "measurement": "EC50", "result": "75 nM"}
{"Molecule": "Cc1nc(C(CN)NC(=O)c2ccc(-c3ccc4c(c3)OCO4)[nH]2)sc1CO (stereo not drawn)", "target or system": "human immunodeficiency virus 1", "assay": "viral replication", "system": "PBMC", "conditions": "168 h", "measurement": "IC50", "result": "3500 ± 900 nM"}
{"Molecule": "CCn1c(=O)c(-c2cc(NC(=O)Nc3ccccc3)c(F)cc2Br)cc2cnc(NC)cc21", "assay": "item: injury and poisoning", "system": "healthy, matched to mild impairment", "conditions": "50 mg single dose", "measurement": "patients with grade 3+ TEAE", "result": "0%"}
{"Molecule": "[Mg+2]", "target or system": "uncharacterized protein (Bacteroides thetaiotaomicron, UniProt Q8A183)", "assay": "phosphatase activity, activator, phosphate release", "conditions": "5 mM, EDTA-treated enzyme, together with: substrate 4 mM", "how to read": "relative to: activity with this ion", "measurement": "relative specific activity", "result": 1}
{"Molecule": "CC1COc2ccccc2N1C(=O)C(Cl)Cl (stereo not drawn)", "target or system": "carboxylesterase", "system": "male rhesus monkey liver cytosol", "conditions": "5 µM, pH 7.4, without GSH", "measurement": "scaled intrinsic clearance", "result": "42 mL/min/g liver"}
{"Molecule": "Cc1c(S(=O)(=O)N2CCc3n[nH]cc3C2)cc(C(=O)NCc2c(F)ccc3cnn(C)c23)n1C", "target or system": "SARS-CoV-2", "assay": "viral replication", "system": "Huh7.5 cells, WA1/2020", "measurement": "EC50", "result": "8.7 nM"}
{"Molecule": "OC[C@H]1O[C@@H](O[C@@H]2[C@@H](O)[C@H](O[C@H]3[C@H](O)[C@@H](CO)OC(O)[C@@H]3O)O[C@H](CO)[C@H]2O)[C@H](O)[C@@H](O)[C@@H]1O (stereo partly drawn)", "target or system": "Bacteroides thetaiotaomicron", "assay": "binding, ITC", "conditions": "pH 7.0, 25 °C, distal domain", "measurement": "-TΔS", "result": "-14.7 kcal/mol"}
{"Molecule": "COC(=O)Nc1c(N)nc(-c2nn(Cc3ccccc3F)c3ncc(F)cc23)nc1N", "system": "healthy male humans, plasma", "conditions": "10 mg once daily, day 6 vs day 5, fed, multiple dose, together with: warfarin 25 mg single dose", "how to read": "relative to: with over without warfarin", "measurement": "Cmax ratio", "result": 1.03}
{"Molecule": "OC[C@H]1O[C@@H](O[C@@H]2[C@@H](O)[C@H](O[C@@H]3[C@@H](O)[C@H](O[C@H]4[C@H](O)[C@@H](CO)OC(O)[C@@H]4O)O[C@H](CO)[C@H]3O)O[C@H](CO)[C@H]2O)[C@H](O)[C@@H](O)[C@@H]1O (stereo partly drawn)", "target or system": "Bacteroides thetaiotaomicron", "assay": "binding, ITC", "conditions": "pH 7.0, 25 °C, distal domain", "measurement": "-TΔS", "result": "-4.69 kcal/mol"}
{"Molecule": "NCC(NC(=O)c1ccc(-c2ccc3c(c2)OCO3)[nH]1)c1ncc(CO)s1 (stereo not drawn)", "target or system": "human immunodeficiency virus 1", "assay": "viral replication", "system": "PBMC", "conditions": "168 h", "measurement": "IC50", "result": "2900 ± 900 nM"}
{"Molecule": "Cc1c(S(=O)(=O)N2CCc3n[nH]cc3C2)cc(C(=O)NCc2cccc3cnn(C)c23)n1C", "target or system": "SARS-CoV-2", "assay": "viral replication", "system": "Huh7.5 cells, WA1/2020", "measurement": "EC50", "result": "18 nM"}
{"Molecule": "OC[C@H]1O[C@@H](O[C@@H]2[C@@H](O)[C@H](O[C@@H]3[C@@H](O)[C@H](O[C@@H]4[C@@H](O)[C@H](O[C@@H]5[C@@H](O)[C@H](O[C@H]6[C@H](O)[C@@H](CO)OC(O)[C@@H]6O)O[C@H](CO)[C@H]5O)O[C@H](CO)[C@H]4O)O[C@H](CO)[C@H]3O)O[C@H](CO)[C@H]2O)[C@H](O)[C@@H](O)[C@@H]1O (stereo partly drawn)", "target or system": "Bacteroides thetaiotaomicron", "assay": "binding, ITC", "conditions": "pH 7.0, 25 °C, middle domain", "measurement": "ΔH", "result": "-39.4 kcal/mol"}
{"note": "Some of these lines once more:"}
{"Molecule": "Cc1c(S(=O)(=O)N2CCc3[nH]ncc3C2)cc(C(=O)NCc2c(F)ccc3occc23)n1C", "target or system": "SARS-CoV-2", "assay": "viral replication", "system": "Huh7.5, WA1/2020", "measurement": "EC50", "result": "18 nM"}
{"Molecule": "Cc1c(S(=O)(=O)N2CCc3n[nH]cc3C2)cc(C(=O)NCc2cccc3cnn(C)c23)n1C", "target or system": "SARS-CoV-2", "assay": "viral replication", "system": "Huh7.5 cells, WA1/2020", "measurement": "EC50", "result": "18 nM"}
{"Molecule": "COC(=O)Nc1c(N)nc(-c2nn(Cc3ccccc3F)c3ncc(F)cc23)nc1N", "system": "healthy male humans, plasma", "conditions": "10 mg once daily, day 6 vs day 5, fed, multiple dose, together with: warfarin 25 mg single dose", "how to read": "relative to: with over without warfarin", "measurement": "Cmax ratio", "result": 1.03}
